Assay results of several laboratories.
Numbered parts are unrelated; each lists some results of a single study.

Study 1
Target: PABPC1L2, full length, GST fusion (mouse, UniProt A0ABA7IW68)
Technique: RNAcompete
Molecule type: RNA
Matrix: in vitro
Concentration: 20 nM
Setting: 7-mer, probes averaged, single round
Relative to: mean of 7-mers
Direction: higher = stronger binding
Target sequence (chain): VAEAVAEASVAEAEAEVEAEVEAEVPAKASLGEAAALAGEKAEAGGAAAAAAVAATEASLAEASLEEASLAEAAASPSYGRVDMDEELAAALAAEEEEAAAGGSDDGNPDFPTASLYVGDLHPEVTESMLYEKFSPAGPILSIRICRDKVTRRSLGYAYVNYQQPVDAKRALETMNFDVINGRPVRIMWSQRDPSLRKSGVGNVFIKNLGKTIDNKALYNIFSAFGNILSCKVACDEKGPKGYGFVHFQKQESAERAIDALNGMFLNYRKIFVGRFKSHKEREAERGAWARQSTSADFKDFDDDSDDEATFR
Strand	7-mer Z-score
GGCGGUC	0.24
CUAAAAG	1.33
GGCCUAA	-0.00833
AGAUACC	-0.383
GCGAGCA	0.0352
CAAGGAA	0.196
UAGUGUU	-0.331
CGAUCCA	-0.159
UUAGUUC	-0.275
AUGUGGG	0.548
UCCGACC	-0.336
UCUGAAC	-0.186
ACUCCAC	-0.101
GAACCCC	-0.295
UACACGC	-0.264
UCUAGCU	-0.32
GUAACAU	-0.0428
GCUUCAG	-0.197
CAGGGCC	-0.122
UAAUUCG	-0.193
CUCGUAA	-0.157
CACAGUU	-0.3
CCGUAUG	-0.313

Study 2
Target: Sal-like protein 4, full length isoform B (SALL4, Homo sapiens, UniProt Q9UJQ4-2, residues 1-616)
Technique: universal PBM
Molecule type: double-stranded DNA, one strand shown
Matrix: in vitro
Concentration: not given
Setting: 8-mer, flanks averaged, mean of replicates
Direction: higher = stronger binding
Target sequence (chain): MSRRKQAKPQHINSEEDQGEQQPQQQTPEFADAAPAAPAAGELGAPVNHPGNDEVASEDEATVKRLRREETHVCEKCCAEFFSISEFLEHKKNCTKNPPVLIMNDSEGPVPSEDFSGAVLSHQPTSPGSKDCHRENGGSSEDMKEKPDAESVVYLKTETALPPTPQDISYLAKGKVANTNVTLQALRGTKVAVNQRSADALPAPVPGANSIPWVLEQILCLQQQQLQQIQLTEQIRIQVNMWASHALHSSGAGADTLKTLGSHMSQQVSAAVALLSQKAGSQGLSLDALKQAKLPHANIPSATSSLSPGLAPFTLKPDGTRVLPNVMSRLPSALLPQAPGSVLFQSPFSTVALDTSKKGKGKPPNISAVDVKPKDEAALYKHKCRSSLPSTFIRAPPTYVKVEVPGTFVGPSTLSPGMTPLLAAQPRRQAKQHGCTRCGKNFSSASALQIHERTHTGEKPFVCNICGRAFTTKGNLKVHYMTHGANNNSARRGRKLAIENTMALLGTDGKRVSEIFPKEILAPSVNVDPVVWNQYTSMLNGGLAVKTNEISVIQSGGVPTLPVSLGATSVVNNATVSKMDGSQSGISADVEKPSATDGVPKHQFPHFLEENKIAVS
Strand	E-score
CGCCGAAC	-0.085
CACTTATG	0.231
ATGCTGAG	-0.224
CAACTGGC	-0.12
CGGCGGGC	-0.373
AGCCTGGC	-0.325
GCCCTGCA	-0.203
TAGTAAGA	0.13
ATCGATAA	0.229
AGATGAAA	0.187
AATCGTTG	0.0757
AGTGGGAT	0.00379
CCTCCATA	0.0796
GCCCAGCA	-0.304
CTCATTGC	0.0286
ATCTCGTC	-0.178
CGGACGGA	-0.29
CGATACGC	-0.0318
GGCGAAGA	-0.173
AAAAGGGT	0.0902
AGATCCCT	-0.168
AATTTGTG	0.173
CTGGCTGC	-0.31
CAGGTAAA	0.218

Study 3
Target: Interferon regulatory factor 7, full length, phosphomimetic (IRF7, Homo sapiens, UniProt Q92985, residues 1-503, S471D/S472D/S475D/S476D/S477D/S483D/S484D/S487D)
Technique: protein-binding microarray
Molecule type: double-stranded DNA, one strand shown
Matrix: in vitro
Concentration: 2200 nM top
Setting: 60-bp whole probe
With: salmon DNA 0.4 mg/ml
Relative to: random background probes
Direction: higher = stronger binding
All sequences stand within: GCCTAGCAC … GTCTTGATTCGCTTGACGCTGCTG
Construct (chain): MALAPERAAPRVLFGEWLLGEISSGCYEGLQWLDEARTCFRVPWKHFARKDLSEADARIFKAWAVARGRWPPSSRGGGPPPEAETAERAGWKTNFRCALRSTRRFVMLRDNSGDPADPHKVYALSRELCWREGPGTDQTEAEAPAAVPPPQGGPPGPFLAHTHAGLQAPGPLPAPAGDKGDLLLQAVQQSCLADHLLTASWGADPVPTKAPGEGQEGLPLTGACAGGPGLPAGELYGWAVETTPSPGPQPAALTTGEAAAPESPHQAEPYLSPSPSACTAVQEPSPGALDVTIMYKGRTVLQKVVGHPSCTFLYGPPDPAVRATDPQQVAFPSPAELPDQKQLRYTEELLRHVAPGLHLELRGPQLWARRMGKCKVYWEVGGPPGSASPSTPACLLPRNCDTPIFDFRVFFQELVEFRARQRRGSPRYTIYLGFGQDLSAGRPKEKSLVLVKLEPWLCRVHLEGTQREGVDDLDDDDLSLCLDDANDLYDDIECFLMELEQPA
Strand	fitted relative affinity
ATTTTTTTGCATTGCTTCTAGTGCTAG	2 z-score
TAGTTTATACTCTAGATGATGTGCTAG	0.505 z-score
GACGGTCTCCTTAGCCTGACGTGCTAG	0.272 z-score
CAGTTTCTCTTTCCTTCTTGGTGCTAG	9.81 z-score
GCCGAACTGGGGACTGGAGACGTGCTA	-0.709 z-score
GACGGTCTCGCTTTCGGGACGTGCTAG	4.07 z-score
TTAGATTTGAGTTCCGATTAGTGCTAG	0.628 z-score
GACGATTTCAGTCCCGAGACGTGCTAG	0.809 z-score
TTAGGTTTCGGGACTGGGATAGTGCTA	3.15 z-score
GGCGGTTTCGGTCTCGGGACGTGCTAG	6.47 z-score
GTCTGTTTCCTCTTTCTTTGGTGCTAG	3.65 z-score
GACGGTTTCGACTATCAGGACGTGCTA	3.23 z-score
CAGCATCTGCAACATCTACAAGTGCTA	0.0181 z-score
GTAGGTCTCCTTATCCTTTAGTGCTAG	0.914 z-score
GACGGTTGCCTTTCCCTGACGTGCTAG	1.12 z-score
CAATATATATATTATATATTTGTGCTA	0.167 z-score
TCACCTCCCTAATTCTGACTGTGCTAG	2.09 z-score
TACGAACTGAGACTGGAGACGTGCTAG	-0.268 z-score
TTAGGACTGGGGTATCGGTTGGTGCTA	-0.54 z-score

Study 4
Target: Ras GTPase-activating protein-binding protein 1, full length (G3BP1, Homo sapiens, UniProt Q13283)
Chain of UniProt Q13283 (whole entry, looked up): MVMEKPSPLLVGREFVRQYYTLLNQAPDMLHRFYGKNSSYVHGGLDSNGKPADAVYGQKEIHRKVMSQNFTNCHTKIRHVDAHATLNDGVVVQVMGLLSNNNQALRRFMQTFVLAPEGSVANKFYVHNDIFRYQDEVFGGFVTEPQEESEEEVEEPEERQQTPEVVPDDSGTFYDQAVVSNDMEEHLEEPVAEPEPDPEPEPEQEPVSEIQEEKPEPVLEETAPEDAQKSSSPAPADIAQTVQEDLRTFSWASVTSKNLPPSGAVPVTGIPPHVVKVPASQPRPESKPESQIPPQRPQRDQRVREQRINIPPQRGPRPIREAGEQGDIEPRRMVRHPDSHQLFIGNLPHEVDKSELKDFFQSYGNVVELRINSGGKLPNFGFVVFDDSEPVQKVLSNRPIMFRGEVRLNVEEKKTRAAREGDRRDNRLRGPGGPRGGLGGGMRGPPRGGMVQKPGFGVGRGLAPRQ
Technique: RNA Bind-n-Seq
Molecule type: RNA
Matrix: in vitro
Concentration: 200 nM
Setting: whole 134-nt RNA, ends assumed
With: 150 mM KCl
Relative to: input library
Direction: higher = stronger binding
Strand	log2 enrichment
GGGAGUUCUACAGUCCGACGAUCGCAGGAAGUAAAAACAAAUGGAAAUGCUUCGGAUAGUCGCAGGGGUGGGGGUUGCUAAGGAAAGGGUGGGAUGGGAGUGGGUAAAGAGUUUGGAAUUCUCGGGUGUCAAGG	0.921
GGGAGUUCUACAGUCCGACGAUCAACUGGAAGAACAGACCCGUAGGGCUCUGGAACUUGAGCAGGAACGGAAGCGUGCCCAGAGCGAGGCUGAAAAGCUGGCCAAGGAGCGUCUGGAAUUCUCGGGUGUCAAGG	-0.875
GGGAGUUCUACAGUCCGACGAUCACCAUGCAGGUGGGCAUCUUUGGGAAGUGGGGCAAGGGGGGGAUAGGGAGGGAGGUAACACUUUGGGAACAGGUGGUCCCAGGUCGUUUCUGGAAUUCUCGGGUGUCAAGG	1.28
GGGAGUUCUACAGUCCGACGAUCACUGAGGUACUGCCCUCCCCUGCCCCCUACCCUCUCCCUUGUCCCUCUACCCCGUUCCUCCCCUUCCCUCCAUUCCCUUUCCCCAACCUGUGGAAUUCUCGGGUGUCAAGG	1.18
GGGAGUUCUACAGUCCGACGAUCCCUCAAGUCCUGUGCUACACAUCGUAUGUACCGAAUCGGGCCGGCCGGCCGGGAAAGUAUUAUGUUACGCCGUUCGGAUCUGCACUUCCAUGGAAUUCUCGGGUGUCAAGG	0.271
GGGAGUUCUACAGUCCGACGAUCGCAGGAAGUAAAAACAAAUGGAAAUGCUUCGGAUAGUGGCAGGGGUGGGGGUUGCUAAGGAAAGGGUGGGAUGGGAGCGGGUAAAGAGUUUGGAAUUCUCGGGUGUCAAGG	1.03
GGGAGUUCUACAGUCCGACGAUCCAAGUCCUGUGCUACACAUCGUAUGUACCGAAUCGGAAAAAGGUUUGGUUUUUGGAAAGUAUUAUGUUACGCCGUUCGGAUCUGCACUUCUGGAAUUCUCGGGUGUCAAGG	-1.01
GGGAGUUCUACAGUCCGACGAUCUCCUGUGCUACACAUCGUAUGUACCGAAUCGGGCCCCCCGGCCCCCCGGGCCCCCCGGGGAAAGUAUUAUGUUACGCCGUUCGGAUCUGCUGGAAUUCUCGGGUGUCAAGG	-0.031
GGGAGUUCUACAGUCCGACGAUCACCAUGCAGGUGGGCAUCUUUGGGAAGUGGGGCAAGGGGGGGAAAGGGAGGGGGGUAACACUUUGGGAACAGGUGGUCCCAGGUCGUUUCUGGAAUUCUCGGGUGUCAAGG	1.04

Study 5
Target: Histone acetyltransferase KAT6A, winged helix 1, GST fusion (KAT6A, Homo sapiens, UniProt Q92794, residues 1-85)
Technique: protein binding microarray
Molecule type: double-stranded DNA, one strand shown
Matrix: in vitro
Concentration: not given
Setting: 8-mer, flanks averaged, mean of 2 arrays, mostly near background
Relative to: not given
Direction: higher = stronger binding
Target sequence (chain): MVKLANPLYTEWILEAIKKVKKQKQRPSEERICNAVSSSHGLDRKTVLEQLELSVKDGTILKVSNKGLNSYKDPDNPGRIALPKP
Strand	E-score
AAATGGTG	-0.132
AAATGGGG	-0.237
GCTGATAC	-0.0141
AGATACCA	-0.0818
CTCGAGCA	-0.261
ACGGTGCT	0.0971
CGTTCGCC	0.167
ACATGCCA	-0.12
AGTAACCC	-0.0889
GGCTTCCA	0.134
CGACTAAC	-0.022
GGGACACC	0.0835
GGGAAGCA	-0.0178
CTCAGAAG	-0.151
GACCACCA	-0.0623
GTCCCTGA	-0.178
CATGCGCC	0.358
ACATGGAC	-0.229

Repeated from above (study 2):
Strand	E-score
CGGACGGA	-0.29
ATCGATAA	0.229
ATCTCGTC	-0.178
AGATCCCT	-0.168
CCTCCATA	0.0796
CACTTATG	0.231
AATTTGTG	0.173
ATGCTGAG	-0.224
AGATGAAA	0.187
CGCCGAAC	-0.085
CTCATTGC	0.0286
GCCCAGCA	-0.304
CTGGCTGC	-0.31
GGCGAAGA	-0.173
AGCCTGGC	-0.325
